Measurements of several laboratories.
Every numbered part comes from another study and shows a few of its results, in no order. Positions count from the first letter of the parent shown.

Set 1
Target: RNA binding protein fox-1 homolog 2, RRM domain, GST-SBP tag (RBFOX2, Homo sapiens, UniProt O43251-10, residues 100-194)
Technique: RNA Bind-n-Seq
Form: RNA
Sample: in vitro
Concentration: 365 nM
Notes: natural RNA segment, single round, ends assumed
Baseline: no-protein control
Direction: higher = stronger binding
Constant ends, left off below: GGGAGUUCUACAGUCCGACGAUC … UGGAAUUCUCGGGUGCCAA
Target sequence (chain): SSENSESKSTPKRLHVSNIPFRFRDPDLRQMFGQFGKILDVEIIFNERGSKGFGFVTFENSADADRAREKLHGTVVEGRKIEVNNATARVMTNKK
Sequence	RBNS enrichment (R)
UCUUCAUCCUGGGGGCUCUGUUACACUAAUUUGAAUAAACUCUCCCCUUUCUUUGCAACUUCCCAGCAACAAUAAUGAUUUUCUUGCCAGGCCGUCUCUUGCUCCCUAAU	1.02
AGUAGCAGGACCUUGUGCUAACCACAAACUGCACCUUCUCAGUACUCACAACCCCGAUCUGCAAGGUAUCGUUAAGGAAUGAGUAUCUUCAGUGUGGCAAAGGAGUAGUG	0.559
AUAGCAAUAAAAUGUGAUUCUUGGGGUCUGCCCAGAGCUGCCCAUGGCUUUAUUUAUGAGUGUGGCUUUGAGGAGUUGGGAAGAGGUAACCCACUUCUCUCCCAUCUUCU	0.322
AAGCCCUGCCUCUGGGCAACUCGCUCAACUCUUGUCCACUAUUAGCUGUGGGCAGUGGAGGCAGAUAGCACUUCUGAGGGAGACUCAUUAAAGCAUUGGCUUUGCUACCA	0.392
AGCCUCUCUGAUGUUGUCAAUGAUGUAAAUUCAGUCCCUGGUUUUUAAUUUUCUGUCUGAUGUCACAGAUCAUUGUUGCACACAAACGUGGCAUAGAAAAGAACAUGUUC	0.56
GCCUUGCUUUGCAAGGAUGGUAAAGAGAAAGCAGACCAGCCAGAUGCAGUCAGUGGUGUAUGCUUGUAAUCCCAGCCCUGGGGAGGCAGAGAAAAAUACCUAAGGCUCAG	0.516
AUGUAUGUUAUAUAACAUUCAAAAGAAUUUUUUUCUUGAUUGAGAAAAGGAUACAAAAUGCAAAAUCCACAAUUUUGAUAACUGAAAAUUGCCAAUUGUUUUGCAGUACU	0.348
GUGUGAUUUGGGUGGGCUUUUACAUCUUGCCUACCAUUGCAUGAAACAUUGGGGUUUCUUCAAAAUGUGUGUGUCAUACUUCUUUUGGGAGGGGGGUUGUUUUCUUCUGU	0.859

Set 2
Target: ABI1, truncated, D143A, DHFR fusion (Arabidopsis thaliana)
Technique: DHFR PCA, deep sequencing
Sample: yeast
Notes: methotrexate growth selection, single substitutions
With: (+)-ABA 0.39 µM
Baseline: wild-type fitted maximum
Direction: higher = stronger binding
Starting sequence: PYL1, truncated, DHFR fusion (Arabidopsis thaliana); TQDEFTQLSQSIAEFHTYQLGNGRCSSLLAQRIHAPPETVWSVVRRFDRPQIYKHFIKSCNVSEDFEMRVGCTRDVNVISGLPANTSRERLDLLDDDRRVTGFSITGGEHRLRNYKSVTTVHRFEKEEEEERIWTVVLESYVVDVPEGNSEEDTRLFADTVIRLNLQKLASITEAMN
Substitution	relative binding score [%]
V40H	-16.2
T86V	42.2
Y18M	0.792
L29S	3.18
Q2P	62.6
V145W	-9.17
E130F	20.5

Set 3
Target: Ras GTPase-activating protein-binding protein 1, RRM domain (G3BP1, Homo sapiens, UniProt Q13283)
Sequence of UniProt Q13283 (whole entry, looked up): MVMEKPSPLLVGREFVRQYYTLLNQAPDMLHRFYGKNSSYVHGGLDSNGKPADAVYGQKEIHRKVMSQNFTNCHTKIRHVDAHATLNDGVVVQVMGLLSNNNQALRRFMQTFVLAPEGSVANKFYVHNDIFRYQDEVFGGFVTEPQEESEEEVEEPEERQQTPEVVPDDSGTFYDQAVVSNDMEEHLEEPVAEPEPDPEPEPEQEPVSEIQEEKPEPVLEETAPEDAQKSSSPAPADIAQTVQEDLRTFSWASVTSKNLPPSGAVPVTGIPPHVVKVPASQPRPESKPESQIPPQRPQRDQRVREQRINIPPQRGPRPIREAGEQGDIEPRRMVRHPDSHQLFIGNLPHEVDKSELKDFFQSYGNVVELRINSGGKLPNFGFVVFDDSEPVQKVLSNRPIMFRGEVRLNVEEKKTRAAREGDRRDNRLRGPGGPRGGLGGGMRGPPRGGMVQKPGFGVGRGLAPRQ
Technique: RNA Bind-n-Seq
Form: RNA
Sample: in vitro
Concentration: 1 µM
Notes: whole 134-nt RNA, ends assumed
With: 150 mM KCl
Baseline: input library
Direction: higher = stronger binding
Constant ends, left off below: GGGAGUUCUACAGUCCGACGAUC … UGGAAUUCUCGGGUGUCAAGG
Sequence	log2 enrichment
GUCCUGUGCUACACAUCGUAUGUACCGAAUCGGGGAAAGGGGUGGGGUUUUUUUGGGGAAAGUAUUAUGUUACGCCGUUCGGAUCUGCAC	0.885
UGGGAGGUGGAUUUUGUUUAUUUUUUUAGCUCAUUUUCAGGGGUGGGAAUUUUUUUUUAAUAUGUGUCAUGAAUAAAGUUGUUUUUGAAA	2.11
GCAGGAAGUAAAAACAAAUGGAAAUGCUUCGGAUAGUGGGAGGGGUGGGGGUUGCUAAGGAAAGGGUGGGAUGGGAGUGGGUAAAGAGUU	1.3
UCAAGUCCUGUGCUACACAUCGUAUGUACCGAAUCGGCCCGGCCCGGGGCCCGGGAAAGUAUUAUGUUACGCCGUUCGGAUCUGCACUUC	-0.535
UUAGGAAGAGAAGACAAGGUGGCCUCUCAUUAGAAGAAGAGGAAGAGGAGGAUGCCAAUUCAGAAUCUGAGGGAAGCAGUAGUGAGGAGG	-0.257
AGGCUAUGGAGGCUAUGAUGAUUACAAUGGCUAUAAUGAUGGCUAUGGAUUUGGGUCAGAUAGAUUUGGAAGAGGUAAGGUAAGAAUUGA	-0.163
CUGUGCUACACAUCGUAUGUACCGAAUCGGCCCCCCCGGGGCCCCCCCGGGCCCCCCCGGGGAAAGUAUUAUGUUACGCCGUUCGGAUCU	-0.592

Mixed results
Substance	target	assay	system	setting	how to read	measurement	value
PhoQ, residues 284 288 289 292 302 303 SVTLVV	PhoP, residues 12 14 15 18 19 MHTVL (Escherichia coli, UniProt P23836)	Sort-seq, refers to: YFP reporter	E. coli	PhoQ-PhoP variant library, with: 10 µM Mg2+	baseline: high Mg2+ state, higher = stronger signaling	fold induction	13.8

Some of these lines once more (set 1):
Sequence	RBNS enrichment (R)
AUAGCAAUAAAAUGUGAUUCUUGGGGUCUGCCCAGAGCUGCCCAUGGCUUUAUUUAUGAGUGUGGCUUUGAGGAGUUGGGAAGAGGUAACCCACUUCUCUCCCAUCUUCU	0.322
